# Experimental data gathered from unrelated publications.
# B1: enzyme (Plasmodium vivax, UniProt A5K9W3); chain MKDSRGKRRCLAFLKGLRLKTDPNLPGAKQKTPFNISRFWLLVIIVIYTATSACIYFDWSAIRNLLLTVGKYKHLNVGDYPDITLSPQYKRINSLYPITLAIHFTMSVFCGFLYDHIGPKFTAIIGQMCNIMSWVFLSIDSTTVDTTFLSFVFLGLGADTAFIPILTISNLYPDASTFILTVVGAAASLSYAVPATLNFICRRYPSTPFPYICYGYIFLILVPCLLVATFLLPLMPFKGLDYYIERDQSRRSGAEGDAHRGRRGDPKMVTSQTNDEVDVEMQPFENAQSEASKGRSGNGSNTPSTRGNTPNGGKQTRGKTTSESNRSSKGEGSAIQGVEEEDQATNSSKGVNEEDSDFHRKSISLFFKVLLSYPSICIIVYFILFNISTVFYGMVTDTYFSYDRSIINIINILMPISCIPCIIFGRFINRYGSAIIIILMNAFSALMHLTALIKHRAAGLVSAFLYMCVTSIYTSQIYCFIQNSFPSVVFGKLLGFASLCGGLFSLLCEKLYDQIVSKDGASIDPTNVVLLLVIAFILMFLPLTVLYFRKYERSIEDLHQEVAMSQSSGRA
# B2: BGLU7 (Oryza sativa, UniProt Q75I93); chain AAVPKPNWLGGLSRAAFPKRFVFGTATSAYQVEGMAASGGRGPSIWDAFAHTPGNVAGNQNGDVATDQYHRYKEDVNLMKSLNFDAYRFSISWSRIFPDGEGRVNQEGVAYYNNLINYLLQKGITPYVNLYHYDLPLALEKKYGGWLNAKMADLFTEYADFCFKTFGNRVKHWFTFNEPRIVALLGYDQGTNPPKRCTKCAAGGNSATEPYIVAHNFLLSHAAAVARYRTKYQAAQQGKVGIVLDFNWYEALSNSTEDQAAAQRARDFHIGWYLDPLINGHYPQIMQDLVKDRLPKFTPEQARLVKGSADYIGINQYTASYMKGQQLMQQTPTSYSADWQVTYVFAKNGKPIGPQANSNWLYIVPWGMYGCVNYIKQKYGNPTVVITENGMDQPANLSRDQYLRDTTRVHFYRSYLTQLKKAIDEGANVAGYFAWSLLDNFEWLSGYTSKFGIVYVDFNTLERHPKASAYWFRDMLKH
# B3: enzyme (Enterococcus faecalis, UniProt Q838J7); chain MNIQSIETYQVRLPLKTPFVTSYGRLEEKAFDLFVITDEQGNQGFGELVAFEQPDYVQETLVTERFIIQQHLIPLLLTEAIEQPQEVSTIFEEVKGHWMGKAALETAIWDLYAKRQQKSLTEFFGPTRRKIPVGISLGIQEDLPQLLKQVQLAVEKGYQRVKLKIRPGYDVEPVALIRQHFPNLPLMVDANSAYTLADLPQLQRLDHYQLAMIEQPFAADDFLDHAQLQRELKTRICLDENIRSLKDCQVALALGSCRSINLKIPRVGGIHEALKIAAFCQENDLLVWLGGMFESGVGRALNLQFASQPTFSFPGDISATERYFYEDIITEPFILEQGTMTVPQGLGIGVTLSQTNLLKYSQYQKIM
# B4: bglA A17S (Acetivibrio thermocellus, UniProt P26208); chain MSKITFPKDFIWGSATSAYQIEGAYNEDGKGESIWDRFSHTPGNIADGHTGDVACDHYHRYEEDIKIMKEIGIKSYRFSISWPRIFPEGTGKLNQKGLDFYKRLTNLLLENGIMPAITLYHWDLPQKLQDKGGWKNRDTTDYFTEYSEVIFKNLGDIVPIWFTHNEPGVVSLLGHFLGIHAPGIKDLRTSLEVSHNLLLSHGKAVKLFREMNIDAQIGIALNLSYHYPASEKAEDIEAAELSFSLAGRWYLDPVLKGRYPENALKLYKKKGIELSFPEDDLKLISQPIDFIAFNNYSSEFIKYDPSSESGFSPANSILEKFEKTDMGWIIYPEGLYDLLMLLDRDYGKPNIVISENGAAFKDEIGSNGKIEDTKRIQYLKDYLTQAHRAIQDGVNLKAYYLWSLLDNFEWAYGYNKRFGIVHVNFDTLERKIKDSGYWYKEVIKNNGF
# B5: enzyme (Pseudideonella sakaiensis, UniProt A0A0K8P6T7); chain QTNPYARGPNPTAASLEASAGPFTVRSFTVSRPSGYGAGTVYYPTNAGGTVGAIAIVPGYTARQSSIKWWGPRLASHGFVVITIDTNSTLDQPSSRSSQQMAALRQVASLNGTSSSPIYGKVDTARMGVMGWSMGGGGSLISAANNPSLKAAAPQAPWDSSTNFSSVTVPTLIFACENDSIAPVNSSALPIYDSMSRNAKQFLEINGGSHSCANSGNSNQALIGKKGVAWMKRFMDNDTRYSTFACENPNSTRVSDFRTANCS
# B6: enzyme (Bacillus thuringiensis, UniProt P0CJ63); chain MTVKKLYFIPAGRCMLDHSSVNSALTPGKLLNLPVWCYLLETEEGPILVDTGMPESAVNNEGLFNGTFVEGQILPKMTEEDRIVNILKRVGYEPDDLLYIISSHLHFDHAGGNGAFTNTPIIVQRTEYEAALHREEYMKECILPHLNYKIIEGDYEVVPGVQLLYTPGHSPGHQSLFIETEQSGSVLLTIDASYTKENFEDEVPFAGFDPELALSSIKRLKEVVKKEKPIIFFGHDIEQEKSCRVFPEYI
# B7: enzyme (Escherichia coli, UniProt P69937); chain MSWIILVIAGLLEVVWAVGLKYTHGFSRLTPSVITVTAMIVSMALLAWAMKSLPVGTAYAVWTGIGAVGAAITGIVLLGESANPMRLASLALIVLGIIGLKLSTH
# B8: enzyme (Nicotiana tabacum, UniProt A0A1S3XCJ5); chain MLPQLSNSSGSGYSWMQDNSASCGNFSRNGRKQGPLNSVAPTERAQISSVDDLYDFICSGPLINKIGLTPEKVAESIDKWIEYGFRLCRLFQLNQLALNEPQKIRLYHYYIPVFLWCEQEISQHSSKFKDNEEIPPLVIGFSAPQGCGKTTLVFALEYLFKITGRKAATLSIDDFYLTAEEQAKLRENNPGNLLLEFRGNAGSHDLSLSVETLAELSKVTKEGVKMKLPRYDKSAYNGRGDRADPSTWPEVEGPLTVILFEGWMLGFKPLPPEAVKAVDPQLETVNKNLEAYYDAWYKYVKSWIIIKIHDPSYVYQWRLQAEIAMRADGNPGMSDEEVRDFVSRYLPAYKAYLPTLYSEGPTGADPEHVLLVEIDEGRNPILGS
# B9: enzyme A477T (Populus trichocarpa, UniProt A0A2K1ZZ60); chain ITRQYTFNITHKNFTRLCHTRSLVTVNGQFPGPRLVAREGDQVLVKVVNHVAENITIHWHGVRQLTSGWADGPAYVTQCPIQTGQAYTYNFTITGQRGTLLWHAHISWLRSSLYGPIIILPKLNESYPFKKPYKEIPILFGEWFNVDPEAVIAQALQTGAGPNVSDAYTINGLPGPLYNCSAKDTYKLKVKPGKTYLLRLINAALNDELFFSIANHTLTVVEADAVYVKPFEADTLLISPGQTTNVLLKTKPHLPNATFYMFAGPYFSGMGSFDNSTTAGVLVYKHPSSNNHLKKLPTLKPTLPPINATGFVANFTKKFRSLANAKFPANVPQTVDRKFFFTVGLGTNPCPKNTTCQGPNNNTKFAASINNVSFVLPSVALLQSYFFGQSNGVFTSDFPQNPTIPFNYTGTPPNNTMVSNGTKAVVLTFNTSVELVMQGTSIVTAESHPLHLHGFNFFVVGQGFGNYDPNKDPSNFNLVDPMERNTAGVPAGGWIAIRFLADNPGVWFMHCHLDVHTSWGLRMAWIVLDGPQPNQKIPPPPSDLPKC
Molecule,tested on,assay,test system,setting,scale,quantity,value
B1 (enzyme),N=C(N)NCCC[C@H](N)C(=O)O,steady-state kinetics,,"pH 7.4, not purified",,Km,1.5 µM
pdc E473Q (Zymomonas mobilis),CC(=O)C(=O)O,steady-state kinetics,,"pH 6, 30 °C",,Km,400 µM
insulin human,,item: CAMK4 mRNA,"EcoHIV-infected mouse, brain","i.p., dose not given",reference: PBS,fold change,1.08
"dxs (Pseudomonas aeruginosa, UniProt Q9KGU7)",CC(=O)C(=O)O,steady-state kinetics,,"pH 8, 25 °C, apparent",,Km,66 µM
B2 (BGLU7),CC(C)(C#N)O[C@@H]1O[C@H](CO)[C@@H](O)[C@H](O)[C@H]1O,steady-state kinetics,,"pH 6, 30 °C, not purified",,Km,36000 µM
rCR L137V/L34A (Lodderomyces parapsilosis),CC(=O)c1ccccc1,steady-state kinetics,,"pH 7, 30 °C, added: NADH 0.5 mM",,Km,790 µM
B3 (enzyme),O=C(O)CCC(=O)C1=CC=C[C@@H](O)[C@@H]1C(=O)O,steady-state kinetics,,"pH 8, 25 °C",,Km,21 µM
B4 (bglA A17S),O=[N+]([O-])c1ccc(O[C@@H]2O[C@H](CO)[C@@H](O)[C@H](O)[C@H]2O)cc1,steady-state kinetics,,"pH 5.5, 60 °C",,Km,3040 µM
nfsB K14R (Escherichia coli),NC(=O)N/N=C/c1ccc([N+](=O)[O-])o1,steady-state kinetics,,"pH 7, 37 °C",,Km,40 µM
B5 (enzyme),O=C(OCCO)c1ccc(C(=O)OCCO)cc1,steady-state kinetics,,30 °C,,Km,8100 µM
"fcl (Campylobacter jejuni, UniProt F2X7A6)",Nc1nc2c(ncn2[C@@H]2O[C@H](COP(=O)(O)OP(=O)(O)O[C@H]3O[C@@H](CCO)C(=O)[C@H](O)[C@@H]3O)[C@@H](O)[C@H]2O)c(=O)[nH]1,steady-state kinetics,,"pH 7.5, 25 °C, apparent",,Km,0.99 µM
B6 (enzyme),CCCC(=O)N[C@H]1CCSC1=O,steady-state kinetics,,"pH 8, added: CoCl2 0.2 mM, DTNB 2 mM",,Km,1830 µM
"fosA (Pseudomonas aeruginosa, UniProt Q9I4K6)",C[C@@H]1O[C@@H]1P(=O)(O)O,steady-state kinetics,,,,Km,200 µM
"enzyme (Trypanosoma brucei, UniProt Q9GV41)",[H][C@]12C[C@]([H])(OO1)[C@H](C/C=C\CCCC(=O)O)[C@H]2/C=C/[C@@H](O)CCCCC,steady-state kinetics,,"pH 7, 37 °C",,Km,1.3 µM
B7 (enzyme),N=C(N)NC(N)=O,steady-state kinetics,,pH 7.5,,Km,850 µM
ALS1 M174L/P171T/R172G (Oryza sativa),CC(=O)C(=O)O,steady-state kinetics,,"pH 7.5, 37 °C, added: FAD, MgCl2, TPP",,Km,18000 µM
B8 (enzyme),Nc1ncnc2c1ncn2[C@@H]1O[C@H](COP(=O)(O)OP(=O)(O)OP(=O)(O)O)[C@@H](O)[C@H]1O,steady-state kinetics,,"pH 7.8, 30 °C",,Km,810 µM
rCR L34A (Lodderomyces parapsilosis),CC(=O)c1ccc(Cl)cc1,steady-state kinetics,,"pH 7, 30 °C, added: NADH 0.5 mM",,Km,360 µM
"Cj1438c (Campylobacter jejuni, UniProt Q0P8H6)",NCCOP(=O)(O)O,steady-state kinetics,,"pH 8, 25 °C, apparent",,Km,260 µM
B9 (enzyme A477T),COc1cc(/C=C/CO)ccc1O,steady-state kinetics,,27 °C,,Km,237 µM
"enzyme (Arabidopsis thaliana, UniProt Q9ZPI1)",NCCCC[C@H](N)C(=O)O,steady-state kinetics,,"pH 7.8, 37 °C",,Km,24.3 µM
"TDP2 (Homo sapiens, UniProt O95551)",Cc1cn([C@H]2C[C@H](O)[C@@H](COP(=O)(O)Oc3ccc([N+](=O)[O-])cc3)O2)c(=O)[nH]c1=O,steady-state kinetics,,,,Km,54000 µM
"enzyme (Bacillus subtilis, UniProt O31616)",O=C(O)CNCP(=O)(O)O,steady-state kinetics,,"pH 8, 25 °C",,Km,33900 µM
"enzyme (Nilaparvata lugens, UniProt B3GVW3)",COc1ccc([C@@H]2CC(=O)c3c(O)cc(O)cc3O2)cc1O,steady-state kinetics,,not purified,,Km,84.7 µM
"enzyme (Pseudomonas aeruginosa, UniProt Q9HWT7)",O=C(O)/C=C/c1ccc(O)cc1,steady-state kinetics,,"pH 8, 37 °C, added: NADH 1 mM, FAD 10 µM, HpaC",,Km,264 µM
